Results gathered from unrelated publications.
Protocols differ between the studies behind these lines. ± gives the spread as reported.
Cell line: HepG2

| Structure (SMILES) | assay | conditions | scale | IC50 [µM] |
| --- | --- | --- | --- | --- |
| O=[N+]([O-])c1ccc(-n2nc(-c3cccs3)sc2=NN=Cc2cn(-c3ccccc3)nc2-c2ccccc2)cc1 | cell growth or viability | – | – | 35.9 |
| COc1cc(-c2cc(-c3ccc(Cl)cc3)n(CC(=O)n3nc(C)cc3C)c(=O)c2C#N)ccc1O | cell growth or viability, MTT | – | – | 21.6 |
| CC1(COc2ccc(CC3SC(=O)NC3=O)cc2)CCCCC1 (centres unmarked) | oxygen consumption rate, inhibitor, Seahorse Mito Stress Test | 1 h | relative to: DMSO 0.2% | 50 to 100 |
| O=[N+]([O-])c1ccc(-n2nc(-c3cccs3)sc2=NN=Cc2ccccc2)cc1 | cell growth or viability | – | – | 86.6 |
| OCCN1CCN(CC/C=C2/c3ccccc3Sc3ccc(C(F)(F)F)cc32)CC1 | cell viability, ATP content | 24 h | – | 62.8 |
| O=C(CN1CCN(c2nc3ccccc3nc2Cl)CC1)Nc1ccccc1 | cell growth or viability, MTT | 24 h | – | 14.6 |
| O=C(Nc1ccc(Cl)cc1)/C(=C/c1ccc(F)cc1)NC(=O)c1ccccc1 | – | concentration not given | – | 18.1 ± 0.96 |
| COc1ccc(NC(=O)CN2CCN(c3nc4ccccc4[nH]c3=O)CC2)cc1 | cell viability, MTT | 24 h | – | 8.35 |
| COc1ccccc1/C=N/NC(=O)c1ccc(-c2cc(OC)c(OC)c(OC)c2)nc1C | cell growth or viability, MTT | – | – | 6.55 |
| COc1cccc(CNC(=O)/C(=C/c2ccc(F)cc2)NC(=O)c2ccccc2)c1 | – | concentration not given | – | 41.3 ± 1.52 |
| CNC(=O)c1cc(Oc2ccc(NC(=O)Nc3ccc(Cl)c(C(F)(F)F)c3)cc2)ccn1 | cell proliferation, MTT | 48 h, miR-140-3p | – | 0.13 ± 0.01 |
| N#Cc1c(-c2ccc(Cl)cc2)c2c(=O)[nH]nnc2n(C2CCCCC2)c1=O | cell growth or viability, MTT | – | – | 0.99 |
| Cc1ccc(NCC(=O)n2ncc3c2ncn2nc(SCCO)nc32)cc1 | cell growth or viability, MTT | 48 h | – | 0.085 |
| O=C(NN=C(c1ccccc1)c1ccccc1)/C(=C/c1ccc(F)cc1)NC(=O)c1ccccc1 | – | concentration not given | – | 25.7 ± 1.04 |
| CC(=O)OC[C@H]1O[C@@H](N2C(=O)/C(=C/c3ccccc3)SC2=S)[C@H](OC(C)=O)[C@@H](OC(C)=O)[C@@H]1OC(C)=O | cell growth or viability, MTT | 48 h | – | 8.2 |
| N#Cc1c(-c2ccc(Cl)cc2)c2c(=O)[nH]c(=S)[nH]c2n(C2CCCCC2)c1=O | cell growth or viability, MTT | – | – | 1.79 |
| CNC(=O)c1cc(Oc2ccc(NC(=O)Nc3ccc(Cl)c(C(F)(F)F)c3)cc2)ccn1 | cell growth or viability, MTT | 24 h | – | 7.31 |
| COc1ccc(CNC(=O)/C(=C/c2ccc(F)cc2)NC(=O)c2ccccc2)cc1OC | – | concentration not given | – | 22.4 ± 0.88 |
| COc1cc(-c2cc(-c3ccc(Cl)cc3)n(CN(C)C)c(=O)c2C#N)ccc1O | cell growth or viability, MTT | – | – | 3.47 |
| COc1cc(-c2ccc(C(=O)N/N=C/c3ccc([N+](=O)[O-])cc3)c(C)n2)cc(OC)c1OC | cell growth or viability, MTT | – | – | 3.74 |
| Cc1nc2ccccc2nc1SCC(=O)Nc1ccc(C(=O)Nc2cccc(Cl)c2)cc1 | cell growth or viability, MTT | – | – | 4.2 |
| COc1cc(-c2ccc(C(=O)N/N=C/c3cc(C)ccc3C)c(C)n2)cc(OC)c1OC | cell growth or viability, MTT | – | – | 6.51 |
| Cc1ccc(NCC(=O)n2ncc3c2ncn2[nH]c(=S)nc32)cc1 | cell growth or viability, MTT | 48 h | – | 0.911 |

For quick reference, copied from above:
| Structure (SMILES) | assay | conditions | scale | IC50 [µM] |
| --- | --- | --- | --- | --- |
| N#Cc1c(-c2ccc(Cl)cc2)c2c(=O)[nH]c(=S)[nH]c2n(C2CCCCC2)c1=O | cell growth or viability, MTT | – | – | 1.79 |
| CNC(=O)c1cc(Oc2ccc(NC(=O)Nc3ccc(Cl)c(C(F)(F)F)c3)cc2)ccn1 | cell growth or viability, MTT | 24 h | – | 7.31 |
| O=C(CN1CCN(c2nc3ccccc3nc2Cl)CC1)Nc1ccccc1 | cell growth or viability, MTT | 24 h | – | 14.6 |
